Published values of several laboratories.
Numbered parts are unrelated; each lists some results of a single study.

Study 1
Target: Histone acetyltransferase KAT6A, both winged helices, GST fusion (KAT6A, Homo sapiens, UniProt Q92794, residues 1-181)
Technique: protein binding microarray
Molecule type: double-stranded DNA, one strand shown
Medium: in vitro
Tested at: not given
Setting: 8-mer, flanks averaged, mean of 2 arrays, mostly near background
Relative to: not given
Direction: higher = stronger binding
Target sequence (chain): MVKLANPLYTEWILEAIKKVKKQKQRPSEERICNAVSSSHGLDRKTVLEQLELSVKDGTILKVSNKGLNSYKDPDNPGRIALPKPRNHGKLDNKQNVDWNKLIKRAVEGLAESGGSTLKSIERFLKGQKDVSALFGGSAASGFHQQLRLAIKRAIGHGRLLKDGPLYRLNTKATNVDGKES
Sequence | E-score
AAGTTATT | -0.0625
CGAGAGGA | -0.0336
GATAAAAA | -0.0891
TAATAGGA | -0.047
AGTTGTCA | -0.0607
TTAAAGAA | -0.00801
AGGCAAAG | -0.233
GTACGTTA | 0.127
TCTTGAAA | -0.0937
GAGAGGGC | 0.0164
ACAGATCC | -0.00511
CACAAACG | 0.0948
AGACACGG | 0.227
ATCACAAT | -0.0936
ATTTCCGA | 0.0191
CATCTTCA | -0.177
AGCCCACA | -0.177
GCTCATGA | 0.00558
CTATGTAC | -0.203
ATACTTTA | -0.177
ATTTTACA | -0.0473
GAAGGGTA | 0.0449
CGACCAAA | -0.0451

Study 2
Target: Probable WRKY transcription factor 11, DNA-binding domain (WRKY11, Arabidopsis thaliana, UniProt Q9SV15, residues 228-325)
Technique: DNA-protein interaction ELISA
Molecule type: double-stranded DNA, one strand shown
Medium: in vitro, bacterial lysate
Tested at: not given
Setting: whole dsDNA probe, crude lysate protein
Relative to: highest signal in screen
Direction: higher = stronger binding
Construct (chain): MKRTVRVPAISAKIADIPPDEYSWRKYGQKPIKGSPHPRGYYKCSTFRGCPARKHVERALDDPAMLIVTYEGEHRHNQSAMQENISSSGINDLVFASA
Sequence | relative absorbance
AAAAAATTTGTACTTTAAGTTTACATAAAA | 14.4 % of maximum
AAAAAATCACAATACCTTCTCGTCATAAAA | 14.4 % of maximum
AAAAAAGGGTTTGTCGGGAATTGCCGAAAA | 15 % of maximum
AAAAAATTTGTTCGGGCTCATAACTGAAAA | 14.1 % of maximum
AAAAAACTCGCGCTTGCATCTGTGCGAAAA | 14.7 % of maximum
AAAAAATAATATCGATACTCATGCCCAAAA | 17 % of maximum
AAAAAATATCGGGCACGGTCTTGTCTAAAA | 15.8 % of maximum
AAAAAAGCGCGCCCGCACTGTTAATAAAAA | 16.1 % of maximum
AAAAAACTAGGTATCGGTAGGCGCCGAAAA | 15.6 % of maximum
AAAAAAGGCTTCCACTTTGAGTTTGCAAAA | 14.4 % of maximum
AAAAAAGCGGTAGATGCGCAACTGTGAAAA | 14.7 % of maximum
AAAAAAGTGCGTTCACGCTTGTATCTAAAA | 16.4 % of maximum
AAAAAATCCCTGCTCCCCTGGTTCCTAAAA | 10.1 % of maximum
AAAAAAGCTTCGCGCCAGCGGGAAAA | 18.7 % of maximum
AAAAAACCACCCAGTCTGTTTCTACTAAAA | 12.7 % of maximum
AAAAAATATCATTGTTACCGTTGCTAAAAA | 10.9 % of maximum
AAAAAAATCTTTGCGTCGAGATTCTTAAAA | 15.6 % of maximum
AAAAAATAGACCCTGACCCACCATTGAAAA | 18.2 % of maximum
AAAAAACCGTATGTATATCTATATGTAAAA | 9.8 % of maximum
AAAAAATTACTCCTAGCCCTCATTCAAAAA | 19.3 % of maximum
AAAAAACCGTCTTATCTCTCGTCCCTAAAA | 13.8 % of maximum

Study 3
Target: Phosphate system positive regulatory protein PHO4, full length, GST-tagged (PHO4, Saccharomyces cerevisiae, UniProt P07270, residues 1-312)
Technique: competition protein-binding microarray
Molecule type: double-stranded DNA, one strand shown
Medium: in vitro
Tested at: 2 µM
Setting: whole 60-bp probe, lowest competitor level
With: Cbf1 competitor, 0.05 µM
Direction: higher = stronger binding
Shared flanks, not repeated: … GTCTTGATTCGCTTGACGCTGCTG
Residues (chain): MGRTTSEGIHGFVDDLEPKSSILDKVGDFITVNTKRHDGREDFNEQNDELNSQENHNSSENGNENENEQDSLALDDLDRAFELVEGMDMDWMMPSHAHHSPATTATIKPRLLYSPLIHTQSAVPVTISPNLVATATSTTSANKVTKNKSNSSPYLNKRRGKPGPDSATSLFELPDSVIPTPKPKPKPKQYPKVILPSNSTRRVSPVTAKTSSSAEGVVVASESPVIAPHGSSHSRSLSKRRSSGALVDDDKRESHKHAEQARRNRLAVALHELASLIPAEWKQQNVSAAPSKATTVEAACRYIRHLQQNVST
Sequence | fluorescence intensity
AAGACGGCACTATTCCATGTGACGGATTCCCATCTG | 6240 a.u.
AAATGGGATAACCGTCACGTGACTCGCACTAGGGGC | 11100 a.u.
GTCTTGTCTCATTGTGAGGTGGGTGTCCCCACTTCA | 5300 a.u.
GGTTATGGCCTGGATGACCTGTTTTCAATTCAGACA | 3210 a.u.
TGCGCAACAACTTGTCACTCTACTTTATGTCTAGAA | 3380 a.u.
TGATAACTTCCGAGTCACGTGTGAAGGAATTCTTAA | 13400 a.u.
TTGAACTTGTACTTGCACATGTATCTTATTGTTTCG | 9070 a.u.
AAACCAAGGGAAGAAAACGTGAATACGGAGAAACTT | 9280 a.u.
CGTTCTTAGCTGGTTCATGTGGATAAACATCTAAAG | 5320 a.u.
GTTACTGGTGGTTGTCATGTTTCCCAAGTTTACGCC | 4740 a.u.
AGCGACTATATTTTGCACGCTCTTAAAGCAGCCACC | 7610 a.u.
ACTCTACGGATGAGTCAGGTGATGGGTCTTATCAAG | 5440 a.u.
TTGTTCATGAGTGAACATGTGGAAGACGAAAAACCA | 8050 a.u.
TGAAGAAGGGGTAGACTCGGAAGCGTTCCAGCGTCT | 2350 a.u.
CTGTGTGACCTTGGACACATGGCTCAACCTCTGTGA | 9530 a.u.
TGCGCAACAACTTGTCACTATACTTTATGTCTAGAA | 3180 a.u.
CGGTTTTTGGCGCGTTTCGTGACTCGAACACCCAGT | 4860 a.u.
CGACAAGCCGCTATTAGCGTGGGTACTGACATCAGG | 5070 a.u.
CTTTCCCGATCTTGACACGTGGGTGTAGCACATTTG | 17200 a.u.
TTCTTGGAGTCGTAGAACATGACAACCGGGGGAGCA | 4160 a.u.
GTTACAAGACTTCACCACGTTAATAGCGATCTGGCT | 6520 a.u.
GTCTTGTCTCATTGCGACGTGGGTGTCCCCACTTCA | 6980 a.u.
CCTGCAAAGCAATGCAACGTGGGCCTGTGAGGATGA | 13500 a.u.
TGCGCAACAACTTGTGCTGTGGGTGTATGTCTAGAA | 5830 a.u.
GTCTTGTCTCATTGTCACGCCACTTTCCCCACTTCA | 5490 a.u.

Study 4
Target: RNA binding protein fox-1 homolog 2, RRM domain, GST-SBP tag (RBFOX2, Homo sapiens, UniProt O43251-10, residues 100-194)
Technique: RNA Bind-n-Seq
Molecule type: RNA
Medium: in vitro
Tested at: 365 nM
Setting: natural RNA segment, single round, ends assumed
Relative to: no-protein control
Direction: higher = stronger binding
Shared flanks, not repeated: GGGAGUUCUACAGUCCGACGAUC … UGGAAUUCUCGGGUGCCAA
Residues (chain): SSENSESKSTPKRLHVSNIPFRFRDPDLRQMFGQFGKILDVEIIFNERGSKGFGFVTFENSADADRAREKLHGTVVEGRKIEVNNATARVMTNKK
Sequence | RBNS enrichment (R)
GCCAAGAAGUGAUACAGGGUGUCAUAUGCAAAUUAGCAAACAGGAAAGGCGGCAAUAUUCAAACCAGAGACCCUGGGCAUCGGUGUAGCCAGUCUGAAGGCCUGAGCCAG | 0.627
AGCCAGCUCAUGGAACGUAGGCCGCAUACGCACAUCUUACCAGUAACCAGUGUGGUUGCCAGAGUGGUCAGGCUGCUCUGAGACAGGGAAGUCUGAUCUCCGCAGGAAAC | 0.266
CAAUUAUUGAAUUGAUACCUGUUUCUAGCAAAUAUAUGACAUGGCCUAGUGUCUUAAUUUUUGUCCCACUCCGUCAGUAAUUUGAAAAGUUGCCUUUAAAUCUUUUUAUU | 0.49
GUUUUUAGAGAGAUGGGUCUCUCUGAGGAGGUCUGUCUCCCUGCUGUACAAUGCCUUUUAAACCUUCCCCUUUUUCCAUACUUCCCAUAGGGCAUUUGUAGAAUUAGUGA | 0.844
GGAAGUGGAUAGAUUGCUUCAGCAAAGUGAACUGUGAGAUCUCCAGGACAGAGGGAGAAAGAUCUGAUCCAAAUGAGAACAGAUUGGUUAUUGCAGGUAUCACAGCCUAA | 0.789
AUUAUAAAUGGGUGGUUGUUUGGUUUGUUUAUUUUUAUAAUUUUUACUGAUGCUCAGUAACCAUGAAAAACUGUGCACAUUCAUGUACUAAUAGAUCUGUACCUAUCUAU | 0.507
ACUGGAUGGGUGGAAUAGGGAAGCAGAUCACUUUUGCAUACAAAAACUCUUUCAAACCCAAAAUAUUAUUGGUGGUACAUUUUAAAGUCCAAUUGUGGACUUAAAUUAGU | 0.458
CCUUCAACAAGCACACUGACAGAGAAAAAAAAAUAUGCUACUGUCUGUUGGUUCCAAUAUUCUCCCACCUAGAGCUUCCUGUUAAAGCAAGUGCGAUCAGCAACAUUUUU | 0.87
GACCGUCUCCUCUACGUGACCGUAUAAUGUUUUUUCUCCUCUUGUAGUCUUUAUGGUGUGUCUUUAUGACGUAAUAAGGUUCUCACGGGUUCGAUUCCUUUGUGUUUAGA | 0.514
UCUCGGGCCAGUGCUCUGCUCUGUCCAGGGUAGGUAAUACUGGGAGACUCCUGUCUUUUACCCUCCCCUCGUUCCAGACCUGCCUCAUGGUGGCAACAUGGUUCUUGAAC | 0.255
UGCCACCUCCCAAGGCAGAAAUCCCCUCUUCAGCUUCUUUUGUAGGUGGGAAUCCAGCCUCUGUUAGAUAUGUCCAGAGAUGGAAACUCACUCCCCUACAAAAGAUGGAG | 1.31
AGUGCAAUCUUCGUUGUUUUUGUAUUUAUUUGUAUGUUCAGAUCCAAAGGAUCCGUUGUAAAAAUAUAUAUAUAUAAAUAUAUGUAUAUCCAGUGCAAUCAACUGUCAUU | 1.63

Study 5
Target: Interferon regulatory factor 3, full length, phosphomimetic (IRF3, Homo sapiens, UniProt Q14653, residues 1-427, S386D/S396D/S398D/S402D/T404D/S405D)
Sequence of UniProt Q14653 (whole entry, unmodified, looked up): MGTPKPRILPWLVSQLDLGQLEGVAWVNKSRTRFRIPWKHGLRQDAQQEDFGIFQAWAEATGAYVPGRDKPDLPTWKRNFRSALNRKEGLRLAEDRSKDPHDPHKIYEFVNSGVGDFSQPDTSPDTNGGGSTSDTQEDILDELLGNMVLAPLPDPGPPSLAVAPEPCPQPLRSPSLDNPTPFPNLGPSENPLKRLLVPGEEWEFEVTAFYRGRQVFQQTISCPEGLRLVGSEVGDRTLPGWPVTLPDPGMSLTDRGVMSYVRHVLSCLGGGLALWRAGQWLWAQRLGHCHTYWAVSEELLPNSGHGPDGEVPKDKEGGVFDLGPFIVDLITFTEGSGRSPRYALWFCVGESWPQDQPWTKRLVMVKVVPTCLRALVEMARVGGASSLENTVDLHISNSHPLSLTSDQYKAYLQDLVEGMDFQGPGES
Technique: protein-binding microarray
Molecule type: double-stranded DNA, one strand shown
Medium: in vitro
Tested at: 2540 nM top
Setting: 60-bp whole probe
With: salmon DNA 0.4 mg/ml
Relative to: random background probes
Direction: higher = stronger binding
Shared flanks, not repeated: GCCTAGCAC … GTCTTGATTCGCTTGACGCTGCTG
Sequence | fitted relative affinity
TTAGGTATCCTTCTCTTTTAGTGCTAG | 6.86 z-score
TTAGATTACAGTTCCGATTAGTGCTAG | 1.81 z-score
GACGGTTTCGGGTTTCGGAACGTGCTA | 6.47 z-score
TCAATTCTCTTTTCACTACTGTGCTAG | 2.43 z-score
AGTGGCCCAGGGCATCCCCTGTGCTAG | -1.18 z-score
GACGATTTCGGGTTTCGATACGTGCTA | 3.8 z-score
TTATGTTTCGGGTTTCGGTTAGTGCTA | 5.68 z-score
GGCAGGAATAAAGGAGCAGCGTGCTAG | -0.832 z-score
GACGGTCTCGGACTGGGCACGTGCTAG | 0.045 z-score
GACGGACTGCATATCCTGACGTGCTAG | -0.259 z-score
GACGGTATCGGGACTCGGGACGTGCTA | 1.55 z-score
GACGGTTTAGACTATCGGGACGTGCTA | 0.468 z-score
CTCGCCTGGGGATGCTAACAGTGCTAG | -0.752 z-score
TTAGGCCTGGGACTGGGTTAGTGCTAG | -1.33 z-score
TCATTTCTCTGCTCTTTTACTGTGCTA | 2.37 z-score
GTGTGCATCTATCTTAAATAGTGCTAG | 0.449 z-score
TTAGGTATCGGGATCGGTTAGTGCTAG | 1.93 z-score
GACGGTCTCCTTTTCCTGTCGTGCTAG | 5.24 z-score
TTAGGTATCGGGCCTGGGTTAGTGCTA | -0.104 z-score
TCAAGTATGTTCACTATTACTGTGCTA | 0.0982 z-score
TTAGATATCAGTAACGATTAGTGCTAG | 0.14 z-score
TTCGGTTTCGACTATCGGTTAGTGCTA | 3.92 z-score

A few entries again (study 1):
Sequence | E-score
AGACACGG | 0.227
ATCACAAT | -0.0936
ATTTCCGA | 0.0191
CATCTTCA | -0.177
AGCCCACA | -0.177
GCTCATGA | 0.00558
CTATGTAC | -0.203
ATACTTTA | -0.177
ATTTTACA | -0.0473
